Measurements collected from several papers.
Lines come from different studies, so protocols differ. ± gives the spread as reported. Converted amounts (≈) assume the structure as drawn.
rep nsp14: Replicase polyprotein 1ab, nsp14 (rep, Severe acute respiratory syndrome coronavirus 2, UniProt P0DTD1)
UniProt P11388, sequence (whole entry, looked up): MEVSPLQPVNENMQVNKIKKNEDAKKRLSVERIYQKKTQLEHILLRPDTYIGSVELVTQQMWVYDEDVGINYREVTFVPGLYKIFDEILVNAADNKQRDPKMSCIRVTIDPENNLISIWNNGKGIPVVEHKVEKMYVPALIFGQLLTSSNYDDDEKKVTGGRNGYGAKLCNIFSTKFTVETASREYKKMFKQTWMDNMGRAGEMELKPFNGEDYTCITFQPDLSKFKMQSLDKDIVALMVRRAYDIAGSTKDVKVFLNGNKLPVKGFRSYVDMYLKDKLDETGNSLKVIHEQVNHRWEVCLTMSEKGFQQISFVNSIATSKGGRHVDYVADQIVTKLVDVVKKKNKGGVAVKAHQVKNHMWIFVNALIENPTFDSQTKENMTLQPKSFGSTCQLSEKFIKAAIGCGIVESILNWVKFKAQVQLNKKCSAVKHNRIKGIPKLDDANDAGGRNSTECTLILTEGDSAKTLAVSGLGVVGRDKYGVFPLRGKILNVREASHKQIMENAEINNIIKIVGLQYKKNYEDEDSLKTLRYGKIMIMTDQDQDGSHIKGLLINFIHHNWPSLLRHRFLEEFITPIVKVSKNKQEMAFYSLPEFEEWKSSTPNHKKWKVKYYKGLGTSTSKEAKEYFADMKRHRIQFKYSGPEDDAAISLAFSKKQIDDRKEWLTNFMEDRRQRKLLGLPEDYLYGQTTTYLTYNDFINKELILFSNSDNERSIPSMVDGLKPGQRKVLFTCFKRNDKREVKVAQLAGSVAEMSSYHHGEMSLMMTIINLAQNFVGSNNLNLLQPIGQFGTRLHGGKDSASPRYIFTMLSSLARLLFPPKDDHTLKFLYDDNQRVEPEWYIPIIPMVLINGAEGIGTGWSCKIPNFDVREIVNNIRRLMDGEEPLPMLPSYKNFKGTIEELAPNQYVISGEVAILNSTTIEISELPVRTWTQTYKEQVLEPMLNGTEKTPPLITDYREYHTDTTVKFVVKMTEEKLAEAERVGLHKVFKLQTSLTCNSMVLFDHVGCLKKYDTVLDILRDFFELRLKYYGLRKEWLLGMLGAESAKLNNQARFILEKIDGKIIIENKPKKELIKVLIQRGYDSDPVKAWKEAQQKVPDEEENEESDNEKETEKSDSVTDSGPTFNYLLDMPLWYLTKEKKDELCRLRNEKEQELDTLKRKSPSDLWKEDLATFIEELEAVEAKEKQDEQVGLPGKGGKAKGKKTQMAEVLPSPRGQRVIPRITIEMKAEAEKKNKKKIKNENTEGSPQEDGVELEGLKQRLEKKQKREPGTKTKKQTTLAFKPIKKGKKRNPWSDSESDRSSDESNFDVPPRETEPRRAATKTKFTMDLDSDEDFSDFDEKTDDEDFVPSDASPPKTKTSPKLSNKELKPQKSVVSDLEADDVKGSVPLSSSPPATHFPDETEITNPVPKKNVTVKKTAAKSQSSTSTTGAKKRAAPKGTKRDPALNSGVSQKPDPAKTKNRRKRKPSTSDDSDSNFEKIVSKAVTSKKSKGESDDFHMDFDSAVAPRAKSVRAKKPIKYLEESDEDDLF

| SMILES | target or system | test | system | setting | scale | measurement | value |
| --- | --- | --- | --- | --- | --- | --- | --- |
| C[C@H]1O[C@@H](O[C@H]2[C@@H](O)C[C@H](O[C@H]3[C@@H](O)C[C@H](O[C@H]4CC[C@@]5(C)[C@H](CC[C@@H]6[C@@H]5CC[C@]5(C)[C@@H](C7=CC(=O)OC7)CC[C@]65O)C4)O[C@@H]3C)O[C@@H]2C)C[C@H](O)[C@@H]1O | human iPSC cardiomyocytes | plate-normalised |  | concentration not given, hit retest | relative to: vehicle controls, SDs below control | MyBP-C level change | 12.8 SD |
| Cc1c(S(=O)(=O)N2CCn3nccc3C2)cc(C(=O)NCc2c(F)ccc3cnn(C)c23)n1C | rep nsp14 | inhibitor |  |  |  | IC50 | 0.0004 µM |
| N#CCC1CCN(c2nc(Nc3ccc(N4CCC(O)CC4)cc3)c3c(=O)[nH]ncc3n2)CC1 |  | vs placebo, Olink multiplex | human, serum | 80 mg, day 15, unit not given | relative to: placebo | osteopontin level difference | -1.36 |
| COC(=O)N(C)c1c(N)nc(-c2nn(Cc3ccccc3F)c3ncccc23)nc1N | THP-1 | pyroptotic LDH release |  | 2 µM, 40 min, together with: LPS then nigericin |  | inhibition | 25.7% |
| CC1COc2ccccc2N1C(=O)C(Cl)Cl (stereo not shown) | glutathione S-transferase |  | female rhesus monkey liver cytosol | 5 µM, 30 min, pH 7.4, together with: GSH |  | remaining compound | 29 ± 2% |
| OC[C@H]1O[C@@H](O[C@@H]2[C@@H](O)[C@H](O[C@@H]3[C@@H](O)[C@H](O[C@@H]4[C@@H](O)[C@H](O[C@H]5[C@H](O)[C@@H](CO)OC(O)[C@@H]5O)O[C@H](CO)[C@H]4O)O[C@H](CO)[C@H]3O)O[C@H](CO)[C@H]2O)[C@H](O)[C@@H](O)[C@@H]1O (stereo partly shown) | Bacteroides thetaiotaomicron | binding, ITC |  | pH 7.0, 25 °C, distal domain |  | -TΔS | -27.9 kJ/mol |
| COC(=O)Nc1c(N)nc(-c2nn(Cc3ccccc3F)c3ncc(F)cc23)nc1N |  |  | healthy white men | dose not given, day 15, 360 h, LS mean difference, together with: sildenafil 100 mg | relative to: placebo | seated SBP maximum decrease | -5.36 mmHg |
| OC[C@H]1O[C@@H](O[C@@H]2[C@@H](O)[C@H](O[C@@H]3[C@@H](O)[C@H](O[C@@H]4[C@@H](O)[C@H](O[C@@H]5[C@@H](O)[C@H](O[C@H]6[C@H](O)[C@@H](CO)OC(O)[C@@H]6O)O[C@H](CO)[C@H]5O)O[C@H](CO)[C@H]4O)O[C@H](CO)[C@H]3O)O[C@H](CO)[C@H]2O)[C@H](O)[C@@H](O)[C@@H]1O (stereo partly shown) | Bacteroides thetaiotaomicron | binding, ITC |  | pH 7.0, 25 °C, middle domain |  | ΔG | -103 kJ/mol |
| [Co+2] | uncharacterized protein (Bacteroides thetaiotaomicron, UniProt Q8A183) | phosphatase activity, activator, phosphate release |  | 5 mM, EDTA-treated enzyme, together with: substrate 20 mM | relative to: activity with Mg2+ | relative specific activity | 0.091 |
| CO/N=C(\C(=O)N[C@@H]1C(=O)N2C(C(=O)O)=C(COC(C)=O)CS[C@H]12)c1csc(N)n1 | Stenotrophomonas maltophilia | broth microdilution | clinical isolate RKI-No 136/09 |  |  | MIC | 2 mg/L (≈ 4.39 µM) |
| Clc1nc(NCc2ccco2)c2[nH]cnc2n1 | iPSC-derived cardiomyocytes, Fabry disease | RNA-seq |  | 30 µM, 72 h |  | GLA poison exon skipping ΔPSI | 26.8% |
| Fc1ccccc1Cc1nc(-c2nc(C(F)(F)F)n[nH]2)cn2ccnc12 |  |  | healthy volunteers | 20 mg, single ascending dose | relative to: placebo | choice reaction time | -12.3 ms |
| COc1cc([C@@H]2c3cc4c(cc3[C@@H](O[C@@H]3O[C@@H]5CO[C@@H](C)O[C@H]5[C@H](O)[C@H]3O)[C@H]3COC(=O)[C@H]23)OCO4)cc(OC)c1O | DNA topoisomerase 2-alpha (TOP2A, Homo sapiens, UniProt P11388) | DNA cleavage |  | 125 µM |  | mean linear DNA | 24.3% |
| OC[C@H]1O[C@@H](O[C@@H]2[C@@H](O)[C@H](O[C@@H]3[C@@H](O)[C@H](O[C@H]4[C@H](O)[C@@H](CO)OC(O)[C@@H]4O)O[C@H](CO)[C@H]3O)O[C@H](CO)[C@H]2O)[C@H](O)[C@@H](O)[C@@H]1O (stereo partly shown) | Bacteroides thetaiotaomicron | binding, ITC |  | pH 7.0, 25 °C, distal domain |  | ΔG | -105 kJ/mol |
| COc1ccccc1CNC(=O)c1cc(S(=O)(=O)N2CCC3(CC2)CC3)c(C)n1C | rep nsp14 | inhibitor |  |  |  | IC50 | > 6.25 µM |
| C[C@H]1O[C@@H](O[C@H]2[C@@H](O)C[C@H](O[C@H]3[C@@H](O)C[C@H](O[C@H]4CC[C@@]5(C)[C@H](CC[C@@H]6[C@@H]5CC[C@]5(C)[C@@H](C7=CC(=O)OC7)CC[C@]65O)C4)O[C@@H]3C)O[C@@H]2C)C[C@H](O)[C@@H]1O | Nedd8-cullin1 interaction | neddylation, AlphaScreen |  | 100 µM |  | inhibition | 19.1% |
| CC(C)=CCC/C(C)=C\CCn1cc(C2OC2(P(=O)([O-])[O-])P(=O)([O-])[O-])nn1.[Na+].[Na+].[Na+].[Na+] (stereo not shown) | RPMI-8226 and MM1.S myeloma | protein geranylgeranylation, immunoblot, measured: unmodified Rap1a |  | 48 h |  | lowest active concentration | 1 to 2.5 µM |
| O=C(O)c1cccnc1Nc1cccc(C(F)(F)F)c1 |  | vericiguat glucuronidation, inhibitor, measured: metabolite M-1 formation | human kidney microsomes | 5.0 µM | relative to: no inhibitor | remaining activity | 15.1% |
| CC(C)C[C@H](NC(=O)OCc1ccccc1)C(=O)N[C@H](C=O)C[C@@H]1CCCNC1=O | SARS-CoV-2 | viral replication, RT-qPCR viral load | Calu-3 | 72 h |  | EC50 | 1.3 ± 0.5 µM |
